Experimental data pooled from the literature.
Each line is one published result; not all experiments were run side by side. ± gives the spread as reported.

Compound | cell line | test | conditions | how to read | measurement | value
O=C(O)C1OC(Oc2c(-c3cccc(O)c3)oc3ccccc3c2=O)C(O)C(O)C1O (centres unmarked) | HeLa-UGT1A9 cells | refers to: 3-O-glucuronide | 0.625 µM aglycone loading, end of excretion |  | intracellular glucuronide concentration | 15.4 ± 0.42 µM
O=C(CCC(=O)NCCS(=O)(=O)O)NCCNC(=O)[C@@H](Cc1ccccc1)NC(=O)[C@@H](Cc1ccccc1)NC(=O)CCNc1ccc([N+](=O)[O-])c2nonc12 | HeLa |  | 200 µM, 24 h |  | intracellular concentration | 800 µM
CCC(=O)N(C)c1ccc(Cl)c(Cl)c1 | CHO-WBL |  | 0.032 mg/mL, 3 h, with S9 activation |  | cells with multiple aberrations | 0%
CC(=O)NC1C(N=C(N)N)C=C(C(=O)OC(C)OC(=O)C(N)C(C)C)OC1C(O)C(O)CO (mixture of isomers) | Caco-2 monolayer |  | 250 µM, apical to basolateral |  | Papp | 2.24 ± 0.133 ×10⁻⁶ cm/s
CC(C)(C)NC(=O)[C@@H]1C[C@@H]2CCCC[C@@H]2CN1C[C@@H](OC(=O)CCC(=O)OC[C@H](O)[C@H]1OC(=O)C(O)=C1O)[C@H](Cc1ccccc1)NC(=O)[C@H](CC(N)=O)NC(=O)c1ccc2ccccc2n1 | Caco-2 monolayer |  |  | relative to: compound over saquinavir | absorptive permeability ratio | 4.7 fold
O=C(/C=C/c1ccccc1)c1ccccc1 | K562 transfected |  | concentration not given, with: TNF-alpha |  | cytotoxicity | toxic
COc1ccc(-c2coc3c(CC=C(C)C)c(O)c(CC=C(C)C)c(O)c3c2=O)cc1O | SW480 | cell growth or viability, MTT | 100 µg/mL |  | viability | 7.83%
O=C(O)C1OC(Oc2ccc3oc(-c4ccccc4)cc(=O)c3c2)C(O)C(O)C1O (centres unmarked) | HeLa-UGT1A9 cells |  | 20 µM aglycone loading, end of excretion |  | intracellular glucuronide concentration | 111 ± 15.8 µM
CC(C)=CCc1c2c(c(O)c3c(=O)c(-c4ccc(O)cc4)coc13)CC(C(C)(C)O)O2 (centres unmarked) | SW480 | cell growth or viability, MTT | 50 µg/mL |  | viability | 8.07%
CC1(C)CCC23COC4(C=CC5C6(C)CCC(O)C(C)(CO)C6CCC5(C)C4(C)CC2O)C3C1 (centres unmarked) | Caco-2 monolayer |  | 10 µM, 3 h, 37 °C, apical to basolateral |  | recovery | 85.4%
O=C(O)C1OC(Oc2cccc(-c3cc(=O)c4ccccc4o3)c2)C(O)C(O)C1O (centres unmarked) | HeLa-UGT1A9 cells |  | 15 µM aglycone loading, end of excretion |  | intracellular glucuronide concentration | 56.7 ± 4.9 µM
O=c1[nH]cc(C(c2ccccc2Br)c2c[nH]c(=O)[nH]c2=O)c(=O)[nH]1 | Mo7e |  | 1 µg/mL |  | cytotoxicity | not toxic
CC(=O)N[C@H](C(=O)N[C@H](C(=O)N[C@@H](CCCNC(=N)N)C(=O)N1Cc2ccccc2C[C@H]1C(=O)N[C@@H](Cc1ccccc1)C(N)=O)C1CCCCC1)C(C)C | human PBMC | Bio-Plex multiplex, refers to: MCP-1(MCAF) | 250 µg/mL, 24 h |  | cytokine level | 4850 ± 5350 pg/mL
CCCCn1cc(C(=O)O)c(=O)c2cc(F)c(N)c([N+](=O)[O-])c21 | HT-29 | cell growth or viability, SRB |  |  | IC50 | 432 µM
Cn1[c]([Ir-3]234([NH3+])[n]5c6ccc5C(c5c(F)c(F)c(F)c(F)c5F)=C5C=CC(=[N+]52)C(c2c(F)c(F)c(F)c(F)c2F)=c2ccc([n]23)=C(c2c(F)c(F)c(F)c(F)c2F)C2=[N+]4C(=C6c3c(F)c(F)c(F)c(F)c3F)C=C2)[n+](C)c2ccccc21.F[P-](F)(F)(F)(F)F | NCI-H460 | ICP-MS | 1 µM, 2 h |  | cellular uptake | 236 ± 9.81 µg iridium/g protein
C=CC(=O)Nc1cccc2c1cc(C)n2-c1nc2c(c(NCc3ccccc3)n1)CCCC2 | Huh-7 cells, uninfected |  | 0.25 µM, 5 days |  | viability | 90 ± 3%
CC(C)c1cnn2c(NCc3ccccc3)cc(N[C@@H](CO)[C@H](O)CO)nc12 | Caco-2 monolayer | transwell permeability | 10 µM, with: FTC and verapamil 10 µM | relative to: Papp B-A over Papp A-B | efflux ratio | 2.5
